Measured values collected from several papers.
Every numbered part comes from another study and shows a few of its results, in no order.
Chain of UniProt P00519 (whole entry, looked up): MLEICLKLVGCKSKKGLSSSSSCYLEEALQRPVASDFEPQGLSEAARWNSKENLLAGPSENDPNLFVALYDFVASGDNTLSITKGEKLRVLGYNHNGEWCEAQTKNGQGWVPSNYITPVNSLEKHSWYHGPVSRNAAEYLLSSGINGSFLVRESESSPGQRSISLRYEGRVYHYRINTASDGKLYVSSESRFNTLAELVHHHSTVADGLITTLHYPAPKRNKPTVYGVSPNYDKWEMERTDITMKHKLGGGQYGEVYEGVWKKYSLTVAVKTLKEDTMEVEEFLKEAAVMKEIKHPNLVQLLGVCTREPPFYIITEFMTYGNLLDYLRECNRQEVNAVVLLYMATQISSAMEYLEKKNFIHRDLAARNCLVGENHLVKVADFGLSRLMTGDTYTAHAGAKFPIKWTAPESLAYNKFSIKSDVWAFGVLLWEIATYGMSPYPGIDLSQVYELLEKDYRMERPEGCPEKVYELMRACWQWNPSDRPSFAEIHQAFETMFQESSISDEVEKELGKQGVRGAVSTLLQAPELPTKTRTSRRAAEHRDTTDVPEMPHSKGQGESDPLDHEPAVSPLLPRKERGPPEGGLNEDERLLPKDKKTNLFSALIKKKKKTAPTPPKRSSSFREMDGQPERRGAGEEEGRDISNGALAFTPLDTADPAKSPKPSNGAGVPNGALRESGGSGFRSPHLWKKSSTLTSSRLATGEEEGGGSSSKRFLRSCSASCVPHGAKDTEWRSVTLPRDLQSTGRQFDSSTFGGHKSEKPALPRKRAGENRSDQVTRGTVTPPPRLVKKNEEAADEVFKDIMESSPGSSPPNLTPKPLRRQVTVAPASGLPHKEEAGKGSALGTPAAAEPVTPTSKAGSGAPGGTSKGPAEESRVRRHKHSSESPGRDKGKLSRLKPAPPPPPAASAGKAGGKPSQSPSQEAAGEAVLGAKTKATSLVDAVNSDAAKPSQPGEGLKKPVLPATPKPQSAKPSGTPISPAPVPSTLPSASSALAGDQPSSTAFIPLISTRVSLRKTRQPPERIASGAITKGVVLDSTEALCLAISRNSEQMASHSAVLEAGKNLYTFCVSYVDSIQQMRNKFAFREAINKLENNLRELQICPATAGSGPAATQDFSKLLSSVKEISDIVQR

Block 1
Organism: Sarcocystis neurona
Effect on: parasite growth
Tested at: 10 µM
Setting: first screen
Baseline: untreated
Measurement: log2 fold change
CC(C)[N+]1(C)[C@@H]2CC[C@H]1CC(OC(=O)C(CO)c1ccccc1)C2.[Br-] (stereo partly drawn): 0.3
Nc1ncn([C@@H]2O[C@H](CO)[C@@H](O)[C@H]2O)c(=O)n1: 0.19
Cc1nccn1CC1CCc2c(c3ccccc3n2C)C1=O.Cl (stereo not drawn): 0.0949
Fc1ccc([C@@H]2CCNC[C@H]2COc2ccc3c(c2)OCO3)cc1.O=C(O)/C=C\C(=O)O: -0.21

Block 2
Target: Beta-1 adrenergic receptor (ADRB1, Homo sapiens, UniProt P08588)
Chain of UniProt P08588 (whole entry, looked up): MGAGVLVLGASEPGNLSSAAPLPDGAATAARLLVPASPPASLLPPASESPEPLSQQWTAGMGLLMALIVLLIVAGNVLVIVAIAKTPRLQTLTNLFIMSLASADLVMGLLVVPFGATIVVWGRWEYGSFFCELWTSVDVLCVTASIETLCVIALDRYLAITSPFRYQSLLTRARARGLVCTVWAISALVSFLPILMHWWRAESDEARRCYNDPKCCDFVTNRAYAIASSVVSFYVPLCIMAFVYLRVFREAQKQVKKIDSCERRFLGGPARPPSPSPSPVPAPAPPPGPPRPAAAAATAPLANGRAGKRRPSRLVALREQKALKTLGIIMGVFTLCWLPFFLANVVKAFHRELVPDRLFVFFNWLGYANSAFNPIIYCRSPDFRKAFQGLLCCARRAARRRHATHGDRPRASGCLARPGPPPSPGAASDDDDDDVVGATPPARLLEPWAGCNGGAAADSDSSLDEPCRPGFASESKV
Mode: antagonist
Measurement: IC50
CC(C)c1ccc(Nc2n[nH]c(C(O)c3ccccc3)n2)cc1 (stereo not drawn): ≥ 100 µM
Cc1ccccc1-c1n[nH]c2ncc(-c3cn[nH]c3)nc12: ≥ 100 µM
c1cc(-c2cc(-c3ccncc3)c3cncn3c2)cc(N2CCOCC2)c1: ≥ 100 µM

Mixed results
NC1(c2ccc(-c3nc4ccn5c(=O)[nH]nc5c4cc3-c3ccccc3)cc2)CCC1 — EC50 (Tyrosine-protein kinase ABL1 (ABL1, Homo sapiens, UniProt P00519); kinase–CDC37 interaction, inhibitor; human cells; kinome plate 1@E11): > 10 µM
CC(C)n1cnc(-c2ccc(F)cc2)c1-c1ncc(C(=O)Nc2ccc(N3CCN(C)CC3)cc2)[nH]1 — patients with benign prostatic hyperplasia (phase 2a trial; idiopathic pulmonary fibrosis patients; dose not given, maximum grade 1, arms pooled): 1%
